# Measured values gathered from unrelated publications.
# Lines come from different studies, so protocols differ. pIC50: −log10 of the molar value.
# Target: Metallo-beta-lactamase type 2 (blaNDM-1, Klebsiella pneumoniae, UniProt C7C422)
# Sequence of UniProt C7C422 (whole entry, looked up): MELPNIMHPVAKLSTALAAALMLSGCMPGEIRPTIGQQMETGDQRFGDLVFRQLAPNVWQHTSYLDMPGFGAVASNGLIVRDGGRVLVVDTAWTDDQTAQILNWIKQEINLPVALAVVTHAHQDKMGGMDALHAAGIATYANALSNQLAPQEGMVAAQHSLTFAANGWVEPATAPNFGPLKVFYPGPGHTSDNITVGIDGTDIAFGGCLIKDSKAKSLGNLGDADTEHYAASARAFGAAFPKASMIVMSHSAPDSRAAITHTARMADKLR
# Read-out: enzyme activity
# Mode: inhibitor
Structure (SMILES),test,conditions,pIC50
CN[C@H](CC(C)C)C(=O)N[C@H]1C(=O)N[C@@H](CC(N)=O)C(=O)N[C@H]2C(=O)N[C@H]3C(=O)N[C@H](C(=O)N[C@H](C(=O)O)c4cc(O)cc(O)c4-c4cc3ccc4O)[C@H](O)c3ccc(c(Cl)c3)Oc3cc2cc(c3O[C@@H]2O[C@H](CO)[C@@H](O)[C@H](O)[C@H]2O[C@H]2C[C@](C)(NCc3ccc(C(=O)OCCCCCCN(Cc4ccccn4)Cc4ccccn4)cc3)[C@H](O)[C@H](C)O2)Oc2ccc(cc2Cl)[C@H]1O,fluorescence,,6.70
CC(C)C1=CCC(C(=O)O)C(C(=O)O)C1 (centres unmarked),fluorescence,with preincubation,3.31
N[C@@H](CN[C@@H](CN[C@@H](CC(=O)O)C(=O)O)C(=O)O)C(=O)O,,,1.92
O=C(O)CN(CCO)CCO,fluorescence,,< 3.70
O=C(O)c1ncsc1-c1ccccc1,fluorescence,with preincubation,3.27
C[C@H](CS)C(=O)Nc1ccccc1-c1nn[nH]n1,fluorescence,with preincubation,4.97
O=[N+]([O-])c1c(Br)c(Cl)c2cccnc2c1O,,pH 7.5,5.99
Cn1nnc(-c2cccc(NC(=O)CCS)c2)n1,fluorescence,with preincubation,5.38
O=C(O)CNCC(=O)O,fluorescence,,< 3.70
COCc1c(C(=O)O)nnn1Cc1c(F)cccc1Cl,fluorescence,with preincubation,3.71
Cn1nnc(-c2ccccc2NC(=O)CCS)n1,fluorescence,"10 min preincubation, with: FC5 substrate",4.70
O=C(O)c1nc[nH]c1C(=O)Nc1ccccc1,fluorescence,with preincubation,< 3.00
O=C(O)CNC(CO)(CO)CO,fluorescence,,< 3.70
Cn1nnc(-c2cccc(NC(=O)CS)c2)n1,fluorescence,with preincubation,5.49

# A few entries again:
Structure (SMILES),test,conditions,pIC50
Cn1nnc(-c2ccccc2NC(=O)CCS)n1,fluorescence,"10 min preincubation, with: FC5 substrate",4.70
